Measurements collected from several papers.
Parts stem from different laboratories: compare values within a part only. Substitutions count along the parent as printed.

Sample 1
Target: RING finger protein unkempt homolog, zinc fingers 1-6, SBP tag (UNK, Homo sapiens, UniProt Q9C0B0, residues 30-357)
Sequence of UniProt Q9C0B0 (30-357, looked up): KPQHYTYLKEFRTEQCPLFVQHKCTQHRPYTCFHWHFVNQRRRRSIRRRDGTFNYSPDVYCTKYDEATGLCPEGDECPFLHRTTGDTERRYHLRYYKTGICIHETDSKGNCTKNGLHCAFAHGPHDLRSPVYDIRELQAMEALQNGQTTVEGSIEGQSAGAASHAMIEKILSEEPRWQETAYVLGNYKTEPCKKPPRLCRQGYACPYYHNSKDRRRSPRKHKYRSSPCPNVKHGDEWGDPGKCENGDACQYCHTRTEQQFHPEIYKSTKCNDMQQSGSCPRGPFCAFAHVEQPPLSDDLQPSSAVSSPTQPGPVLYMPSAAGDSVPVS
Technique: RNA Bind-n-Seq
Form: RNA
Medium: in vitro
Tested at: 100 nM
Setting: RNA with constant flanks, vertebrate orthologous sites, ends assumed
Relative to: input RNA pool
Direction: higher = stronger binding
Endpoint: bound/input enrichment
Constant ends, left off below: GGGAGUUCUACAGUCCGACGAUC … CAACAGAGGAUUGAGCAUCA
AUCCUUUCACACUGUCCCCAGCCAGGGUCAAGGACCAGACGUUUCACUGAGGACCUGCAUUUCAAACAGUUUUUAAAUUGUACAGGAAGAGAUGCGACAAAACAGCAUCUCAGCGUCGAG: 0.336 ratio
CAGUUCCUCGGACUGUCUUUCAGGUUGUGGCUGGCCCAUUUUCCAUUCUUUCUCUCUUACUUUCAUGCACAUGUUUUCAUUUCACAACUUCUUUCAGCAAAAGCACAUGUGGGUAUUUCU: 0.49 ratio
CUGUUGUUAAGCACUGUGUUCCAGACUGUGUCUGACUUGAGUGUGACCUAGGAGAUUUUAUUGUUUUAUUUUAAUGAAGCCCUGCUUGCCACAGAGCAGCCGGGAGAGCAGCGUCCACCA: 0.75 ratio
AUGCAUUUUGCCACUUGGACGUGGUCUGCACUGAAAGCUGCUGGCCCCUCCACAACAAUACAUACAAUGUUUGUCUUUUUUAAAGAUGUUCAAAAUGAAUUGAAUUUACUAAACAUGUAA: 0.125 ratio
CAUAGAAUAUUGGAUGCAGCAUAUAAAUUAUCCAAGGCAGUGACUUCAGCUUUAUAGAGAUUGUUAGUUUUAAAGGCACCUAAUUUUAUUUAAACUUCUAGAUUGGAUUGUUUGCUAUUG: 1.51 ratio
AAUAGUUUUAAGCUUGUUUGCACAGUUUUUUCUUUCCAUUGGAGAUGGAAUUCAUUGCCUUAGGUCUUUUUAAUAGUGUAUUGUUAUUGUUGGGCUGGCUCUAUGCUUGAAAACCAGUUU: 2.07 ratio
GAAUUGAACAAAAGCGUUUCCACUGGGUUUUGCUUGUAAGAAAAAACGUACCCGAGCACAUAGAGCUUUUUAAUAGCGCUAACCAAUGCCUUUUUAGAUGUAUUUUUGAUGUAUAUAUCU: 0.751 ratio
GUUAGGCCAUGACCCUUACAGGCUAGGUCAUGAUGCCUACAGGUUAGGGCAAGACCCCUAUAGAUUAGGGCAUGACCCCUACAGACUAACUCCUGAUCCCUAUAGGAUGUCACCUAGACC: 0.434 ratio
GAACUAAAGGAGUUAGCAUCUUUAUUUUUGUAUCAAAGAUGAAGAUUAUUUUGAAAUUAUUAAGAUUUUUACACAACUCUGAAGUCUGUUGCUUUUGUAAACAAGUUGUUUAAUCUUAGG: 0.498 ratio
CCGAAAGGCCAAAUUCCCUCCUCCCUUCUACUGCUUCUACCAACUGGAAGCACAGAAAACUAGAAUUUCAUUUAUUUUGUUUUUAAAAUACAUAUGUUGAUUUCUUGUAACAUCCAAUAG: 0.568 ratio

Sample 2
Target: CCNB1, cyclin fold, Cln2 fusion (human)
Technique: yeast growth competition, sequencing
Medium: yeast
Setting: strong parent motif
Relative to: not given
Direction: higher = stronger binding
Endpoint: normalised enrichment score
Parent: PKN2 docking peptide (human); VSAVQKLDFSDTM
S2D: 1.55
S2N: 1.75
M13P: 1.65
D8E: 1.33
L7D: -0.378
V4D: 0.211
F9G: 0.0539
T12S: 2.49
M13S: 2.31

Other studies, line by line
BYSL (Homo sapiens, UniProt Q13895)
cross-linked residues (RRP12 (Homo sapiens, UniProt Q5JTH9); cross-linking MS; cell fractions; together with: DSSO): K139 to K185

PhoQ, residues 284 288 289 292 302 303 AGHLVA
fold induction (PhoP, residues 12 14 15 18 19 NYFTV (Escherichia coli, UniProt P23836); Sort-seq, refers to: YFP reporter; E. coli; PhoQ-PhoP variant library, together with: 10 µM Mg2+; relative to: high Mg2+ state, higher = stronger signaling): 1.09

ALG11 (Homo sapiens, UniProt Q2TAA5)
cross-linked residues (ACTRT2 (Homo sapiens, UniProt Q8TDY3); cross-linking MS; cell fractions; together with: DMTMM): M1 to E226

Excerpt of the above (other studies, line by line):
BYSL (Homo sapiens, UniProt Q13895)
cross-linked residues (RRP12 (Homo sapiens, UniProt Q5JTH9); cross-linking MS; cell fractions; together with: DSSO): K139 to K185
